{"data": "Results gathered from unrelated publications", "note": "Parts stem from different laboratories: compare values within a part only. Changes are numbered by the printed parent chain."}
{"data": "Series 1", "target": "Histone acetyltransferase KAT6A, winged helix 1, GST fusion (KAT6A, Homo sapiens, UniProt Q92794, residues 1-85)", "method": "protein binding microarray", "form": "double-stranded DNA, one strand shown", "medium": "in vitro", "tested at": "not given", "setting": "8-mer, flanks averaged, mean of 2 arrays, mostly near background", "relative to": "not given", "direction": "higher = stronger binding", "Construct (chain)": "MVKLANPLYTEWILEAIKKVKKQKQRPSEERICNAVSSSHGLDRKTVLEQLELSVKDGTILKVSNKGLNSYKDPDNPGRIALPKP"}
{"Sequence": "ATGTCGGG", "E-score": 0.218}
{"Sequence": "CTAAATCA", "E-score": -0.113}
{"Sequence": "TATTTCGA", "E-score": -0.0668}
{"Sequence": "GTCTCTAA", "E-score": -0.125}
{"Sequence": "CACTCCAC", "E-score": -0.27}
{"Sequence": "TGTTGGAA", "E-score": -0.244}
{"Sequence": "CGATCAAG", "E-score": -0.00932}
{"Sequence": "ACCCCATG", "E-score": -0.148}
{"Sequence": "ACTTGGCC", "E-score": -0.046}
{"Sequence": "CGTCGTCA", "E-score": 0.135}
{"Sequence": "GGGGCTAA", "E-score": -0.185}
{"Sequence": "CCATCGCG", "E-score": 0.32}
{"Sequence": "AACGCTGC", "E-score": 0.022}
{"Sequence": "GTAGGCAA", "E-score": -0.241}
{"Sequence": "AATAAAGG", "E-score": -0.09}
{"Sequence": "AGCCCTAT", "E-score": -0.0655}
{"Sequence": "AGCGACGC", "E-score": 0.353}
{"Sequence": "AGGGAAGC", "E-score": 0.0322}
{"Sequence": "ATTCCCAC", "E-score": -0.218}
{"Sequence": "ATCGGCTG", "E-score": 0.0175}
{"Sequence": "AAATTGAT", "E-score": -0.108}
{"Sequence": "ACATCAAC", "E-score": -0.0326}
{"Sequence": "CGAAAGAA", "E-score": -0.128}
{"Sequence": "CCAATCAC", "E-score": -0.172}
{"Sequence": "CGTGCCAC", "E-score": 0.0931}
{"data": "Series 2", "target": "Hepatocyte nuclear factor 3-alpha (Foxa1, Mus musculus, UniProt P35582, residues 1-468, full length assumed)", "method": "EMSA with sequencing", "form": "double-stranded DNA, one strand shown", "medium": "in vitro", "tested at": "10 and 20 nM", "setting": "whole designed probe, mean of two concentrations, ends assumed", "relative to": "negative control set to 0", "direction": "higher = stronger binding", "all sequences stand within": "GTGAGCGGTGCCCATTGATGGGGAAC … TTTCACTGGGATCGTGGGGAC", "sequence of UniProt P35582 (whole entry, looked up)": "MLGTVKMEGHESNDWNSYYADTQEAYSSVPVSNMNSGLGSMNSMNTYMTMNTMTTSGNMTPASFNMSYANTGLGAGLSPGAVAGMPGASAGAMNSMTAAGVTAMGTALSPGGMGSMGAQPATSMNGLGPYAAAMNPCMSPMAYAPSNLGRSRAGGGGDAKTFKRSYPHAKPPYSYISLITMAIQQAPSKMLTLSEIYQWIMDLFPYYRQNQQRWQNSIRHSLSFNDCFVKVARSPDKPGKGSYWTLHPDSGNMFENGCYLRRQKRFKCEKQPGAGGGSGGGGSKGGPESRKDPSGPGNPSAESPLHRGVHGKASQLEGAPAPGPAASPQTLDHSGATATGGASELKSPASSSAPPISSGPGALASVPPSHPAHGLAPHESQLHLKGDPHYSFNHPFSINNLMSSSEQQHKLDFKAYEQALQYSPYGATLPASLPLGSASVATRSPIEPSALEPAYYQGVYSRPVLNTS"}
{"Sequence": "TTAGGACCTCCCCTGCCACCATCTGGGCAGTGAAGCTCTGCCGGTGTGCTACTGGCAGTGTCCCGGGTTGTGTGTGGAGACACTGAGCACTGTAGATTACTTTAGAAGTTTATTGTCCCCAGAATGCTGCTCCCCCACAACTGTCTCCTGCAGCATGAAGGCTGACATTGTATCGTGGCTGTGTATCCACATG", "normalised bound fraction [ratio]": -0.0318}
{"Sequence": "ATCTTCCCCCTCTTCCTTGCCCCACCAGCTCACCTACGGGGGTTATTTGCAGATAGGAAAATAAATAAAGCCGGCATTCGTTAACCCTCTTCTGGCGCAAACTGCTGTTTGCTCTGCATCTAACATGGTCCTTACGCGAGGCGTGGCTCCGGGAGAGCAAAGCACCGTGTCAGGCGCATGATCCGGGGTGGCC", "normalised bound fraction [ratio]": 0.357}
{"Sequence": "TTATATCTAGGCTACAGCATGGAGATAATTGATACAAATATTTTCTTATCATCATGGTCCTCAAAGAAAGTACCAGGCCTAATTTGCAATCTAAGTAATCTTAAAAAGAAAGTTGTTTAGTAAAGCAATTTATTTCATAAGTCACTATTTCTTTCACCATAGCCATATACTATCTTATGCTTAGTAATGAATT", "normalised bound fraction [ratio]": -0.0298}
{"Sequence": "ATCTTCCCCCTCTTCCTTGCCCCACCAGCTCACCTTCCCGGGTTATTTGCAGATAGGAAAATAAATAAAGCCGGCATTCGTTAACCCTCTTCTGGCGCAAACTGCTGTTTGCTCTGGATGAATCATGGTCCTTTGGCGACGCCAGGCTCCGGGAGAGCAGCCAGCGACACCGATGAGTTGATCCGGGGTGGCC", "normalised bound fraction [ratio]": 0.345}
{"Sequence": "TCAAGTTTCATGGTCATTTCAGGAAAAAATTTCCATTAATAAAATGCAAATGAATACACCTGGGTGTCTCATTTACAAATAAATTTCTCGTTGATGTTTACTTTGTTTTTATATTCTTGCAAGGTTAAAAAGTTACCGTTTCTTGAATATTCCTTATTAATTTTTCTAGACATCAATTAATTTGTTGAATAGA", "normalised bound fraction [ratio]": 0.347}
{"data": "Series 3", "target": "NFIL3, bZIP domain (human)", "method": "DHFR protein complementation", "medium": "yeast", "setting": "single substitutions, most at no-binding floor", "relative to": "wild-type JUN-FOS pair", "direction": "higher = stronger binding", "parent": "JUN, bZIP domain (human); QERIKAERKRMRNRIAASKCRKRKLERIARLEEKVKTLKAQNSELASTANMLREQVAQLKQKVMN; partner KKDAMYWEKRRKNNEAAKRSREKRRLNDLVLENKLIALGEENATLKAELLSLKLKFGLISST"}
{"Variant": "L45S", "binding fitness": "-1.48 natural log"}
{"Variant": "L38N", "binding fitness": "-1.47 natural log"}
{"Variant": "R30T", "binding fitness": "-1.23 natural log"}
{"Variant": "L38F", "binding fitness": "-1.58 natural log"}
{"Variant": "T48K", "binding fitness": "-1.3 natural log"}
{"Variant": "V56R", "binding fitness": "-1.5 natural log"}
{"Variant": "N42G", "binding fitness": "-1.51 natural log"}
{"Variant": "L45Q", "binding fitness": "-1.51 natural log"}
{"Variant": "E33R", "binding fitness": "-1.38 natural log"}
{"Variant": "A49F", "binding fitness": "-1.52 natural log"}
{"Variant": "K36E", "binding fitness": "-1.56 natural log"}
{"Variant": "R30A", "binding fitness": "-1.3 natural log"}
{"Variant": "V35Q", "binding fitness": "-1.51 natural log"}
{"Variant": "Q55G", "binding fitness": "-1.51 natural log"}
{"Variant": "V56Q", "binding fitness": "-1.49 natural log"}
{"Variant": "S47L", "binding fitness": "-1.45 natural log"}
{"Variant": "A29R", "binding fitness": "-1.4 natural log"}
{"Variant": "A46D", "binding fitness": "-1.49 natural log"}
{"Variant": "R30L", "binding fitness": "-1.45 natural log"}
{"Variant": "A46C", "binding fitness": "-1.34 natural log"}
{"Variant": "K36R", "binding fitness": "-1.47 natural log"}
{"Variant": "M51A", "binding fitness": "-1.34 natural log"}
{"Variant": "K36P", "binding fitness": "-1.49 natural log"}
{"Variant": "L52V", "binding fitness": "-1.52 natural log"}
{"Variant": "R30N", "binding fitness": "-1.39 natural log"}
{"data": "Series 4", "target": "RNA binding protein fox-1 homolog 2, RRM domain, GST-SBP tag (RBFOX2, Homo sapiens, UniProt O43251-10, residues 100-194)", "method": "RNA Bind-n-Seq", "form": "RNA", "medium": "in vitro", "tested at": "365 nM", "setting": "natural RNA segment, single round, ends assumed", "relative to": "no-protein control", "direction": "higher = stronger binding", "all sequences stand within": "GGGAGUUCUACAGUCCGACGAUC … UGGAAUUCUCGGGUGCCAA"}
{"Sequence": "AUGAGUUCGAAACCAGCCUGGCCAAAACAGUGAAACCCCGUCUCUACUAAAAAUACAAAAUUAGCCAGAUGUGGUGGCGCACACCUGUAAUCCCAGCUACUCAGGAAGCU", "RBNS enrichment (R)": 0.421}
{"Sequence": "UAUAUUCUCUACACUCCAGCAUUAAUAUGUCUGUUUAAAAAUUACUAAUUCUCAAAUGGCUCAAGAACAUUAGAAUUUAAGUACCUUUUAGAGUAAUUAUUUUAAGCAAA", "RBNS enrichment (R)": 0.463}
{"Sequence": "AUUACAAUUGCAAAUCUUUACUUACAGGAGAGGAAACAGAAGAGAUAAAAACUUUUCCAUGCAAAUAUCUAUUUCUAAACCACAAUGAUCUGAUUUUCUUUCUUCUUUCU", "RBNS enrichment (R)": 0.415}
{"Sequence": "GGACCCGCAGGGACCAGCUGACCAGGCUUGUGCUCAGAGAAGCAGACAAAACAAAGAUUCAAGGUUUUAAUUAAUUCCCAUACUGAUAAAAAUAACUCCAUGAAUUCUGU", "RBNS enrichment (R)": 0.434}
{"Sequence": "GACCUCAGACACUCUCUGGCUAAUAUUUUAAUAAGCUCACAGCAGAUAAUUCUGAGAUCAUGGGUGAGGGGUGGUGCAUGUUGAGAUUUAAAUUGGCAUAAAGCUGCAUA", "RBNS enrichment (R)": 3.07}
{"Sequence": "GAAAAUGAAACAUUCUUUUUCUGGAGAAGUUUACAUGCCCAUUGUUGGUCACCUCUUUACUGUAAAUACUAUUGAAAAAAGGAGCGUAGCAUUUGCAUAGCAGGGAUUGU", "RBNS enrichment (R)": 0.448}
{"Sequence": "GCUAAGUCUAAAUUGUCUUUUCAUUUCAUGAUGCAUUUUUUCUCUUUUGUCAGGAUAACAUCAUAUAGCAUCUUGUUUGUUUUUCCUAAUCUCUAUGUACAUAUCUAUCU", "RBNS enrichment (R)": 1.66}
{"Sequence": "UGUGUGACCUGCAGGGCAUGAGGUAUUGAUGUGUUCGGGUUUCCUUUCCCAAGCCAGCAGAUGCAGGUGUUCCAAGGUGUGUUGCUCUGUGGGAUUUGUGGACACUUAAG", "RBNS enrichment (R)": 2.07}
